Measurements collected from several papers.
Parts stem from different laboratories: compare values within a part only. Positions count from the first letter of the parent shown.

Set 1
Target: RING finger protein unkempt homolog, zinc fingers 1-6, SBP tag (UNK, Homo sapiens, UniProt Q9C0B0, residues 30-357)
Chain of UniProt Q9C0B0 (30-357, looked up): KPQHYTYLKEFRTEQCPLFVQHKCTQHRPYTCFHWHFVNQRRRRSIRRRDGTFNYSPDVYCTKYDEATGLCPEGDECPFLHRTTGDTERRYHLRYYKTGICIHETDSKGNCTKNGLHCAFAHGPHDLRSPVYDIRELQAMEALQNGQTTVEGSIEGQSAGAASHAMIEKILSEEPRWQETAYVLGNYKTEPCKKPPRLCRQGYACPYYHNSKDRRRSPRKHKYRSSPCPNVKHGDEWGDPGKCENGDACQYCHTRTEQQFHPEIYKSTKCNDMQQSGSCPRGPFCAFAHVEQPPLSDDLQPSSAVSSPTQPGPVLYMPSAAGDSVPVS
Method: RNA Bind-n-Seq
Form: RNA
Medium: in vitro
Tested at: 100 nM
Setting: RNA with constant flanks, vertebrate orthologous sites, ends assumed
Baseline: input RNA pool
Direction: higher = stronger binding
All sequences stand within: GGGAGUUCUACAGUCCGACGAUC … CAACAGAGGAUUGAGCAUCA
Strand | bound/input enrichment
GACAUAAUUGCAUACAAUAAUGAAAACCUAUAGAAAAUUUGUUUUUCAUUUUCCCCUUAGGCAUAGUCUUUUUUCCCAGGCAGAUCAUUCUGAGUGUGCGAGUGUGUGUGCACAUGUUAC | 1.11 ratio
AUCCCAGUUUGUAUGCACAUUAUUCACAUUCCUAUCUGUUGUGUUUGCAGAAAUGACAUUUUACCCUUUUCUAAGGGUUGCGUUUUGAUUUUCAUAUUAUUUGGUUGCAUGAAGUUGCCC | 0.379 ratio
CGGCUGAUUCGCUCAUCGGAAGAGCUGCACACAUAGCUGUUCUUGAUUCUGAGAUAUUUUUAGAGAAGUUUUUCCUGGUUGCCGCCCUCAAAUAUUUUCAGUAGGACCGAAGCAUCAUUA | 0.841 ratio
GAUUUGGACCUAGGAGCCGAACCAGAGAGCUAGCAAAAGUAAAGCAGACGUGUAAAAGUAGAGCCCUGUGCAGCUGCCCGGCAACAGUACUACCGCUAGCAGCGGUGUGAAGGUAUUUAU | 0.462 ratio
GAGCAGUAAACUGUGCUGGUGCGGAAUCCUGUGCACCAGUGCCCCCUUCACACCACUGUCCUACCUACAGGAAUUUAAUAUUUUUAAAGUUUUACAAUACUGUAUGUAUAUUCAAAGAUU | 0.248 ratio
UGAAAGUUACAGGCAUGAGUCCGAAAGUAGAAAUUCUGGUUCCUGGCUAUCAUCUUCUCUCAGGAACAGGUGUACACCAUUGUUUUCGAGGAGAAGAAGAGAAGGGAGAGAUGAAACUGC | 0.189 ratio
UCCUCAACUUGUUGUAGCUUGUGAUCCUUCAAAGUUGGGUCAGGCAUUAGUGCUAGAUACUAGAAAUUUUCAUUUCCCUGUUGCUAUUGAUCAGAGAGACAGGCAUUAAUUAAAAACAAA | 0.993 ratio
GCAGGGAUGGCCCAAUCCCACCACUGUUGAGUCUGUAAACUUCGAUCUGUAAAUAACGUUUAGCAUUCCUAUUGUAACAAAAUUAAUUUUUACAAAAUAAAUUAUAUUUCCUAGUCUAAU | 0.625 ratio
UGAGCAUACAUAUACAAUGUGUUUCAAAUGCUGCUUGUAAAAUUAAACCAUCAUCUAGAAUAGAGUUAAUUUGUUAUAAUCAAGCUACAAAUAGGUUUUCUUAAACCAGAGAUGCACUGC | 0.466 ratio
GAGGAUUAGGUUCGAUCCUUUACGUGUUAAAAAAGAAAGCGUAAAAACAUUUUUAAAACAUAGAAGAAUUCAGCAAACCAUUUUUAAAGUAGAAGAGGGUUUUAGGUAGCAAAACGUAUU | 1.2 ratio
AUUCAAGCCUGUGGUACCAUGGCCUCAUGUUGAAGGAGUAGAAGUGGACUUAGAGUCUAUUAGAAGAAAAAACAAGGCCAAAAAUGAACAGGAGCGUCAUGCUGGAGGAGAUUCCCAGAA | 0.415 ratio

Set 2
Target: Sal-like protein 4, full length isoform B (SALL4, Homo sapiens, UniProt Q9UJQ4-2, residues 1-616)
Method: universal PBM
Form: double-stranded DNA, one strand shown
Medium: in vitro
Tested at: not given
Setting: 8-mer, flanks averaged, mean of replicates
Direction: higher = stronger binding
Target sequence (chain): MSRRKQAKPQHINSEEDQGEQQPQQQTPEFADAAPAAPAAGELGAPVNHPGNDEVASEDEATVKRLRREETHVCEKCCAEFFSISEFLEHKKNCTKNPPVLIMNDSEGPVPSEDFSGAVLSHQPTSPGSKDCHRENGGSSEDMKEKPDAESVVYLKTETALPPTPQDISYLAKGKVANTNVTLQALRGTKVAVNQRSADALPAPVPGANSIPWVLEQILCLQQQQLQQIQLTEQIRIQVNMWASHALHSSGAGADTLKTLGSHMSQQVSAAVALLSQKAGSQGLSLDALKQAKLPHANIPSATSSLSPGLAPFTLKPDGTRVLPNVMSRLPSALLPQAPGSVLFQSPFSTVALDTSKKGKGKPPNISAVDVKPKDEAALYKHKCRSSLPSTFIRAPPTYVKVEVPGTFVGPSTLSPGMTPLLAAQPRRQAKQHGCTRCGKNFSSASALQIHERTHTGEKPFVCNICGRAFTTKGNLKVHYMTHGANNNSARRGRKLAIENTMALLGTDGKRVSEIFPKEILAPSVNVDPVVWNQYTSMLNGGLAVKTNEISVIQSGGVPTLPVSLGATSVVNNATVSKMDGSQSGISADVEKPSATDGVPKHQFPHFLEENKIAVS
Strand | E-score
GGCAGCCA | -0.158
ATGGAGTA | 0.126
GAGTAAAA | 0.207
CTAGCGAA | -0.13
ATTCACGG | 0.076
AAATAATC | 0.321
AGTAGAGG | -0.195
AAAAACGG | -0.0327
CGTTTCAG | -0.0002
TACACACA | 0.207
GCGGGTCC | -0.34
GCCTCCCC | -0.248
AGGGGGAA | -0.0422
CACGGCTA | -0.0574
CGATTCGC | -0.119
GGTACCGA | -0.187
AATATAGT | 0.395
AATGGCTC | -0.0249

Set 3
Target: ABI1, truncated, D143A, DHFR fusion (Arabidopsis thaliana)
Method: DHFR PCA, deep sequencing
Medium: yeast
Setting: methotrexate growth selection, single substitutions
Together with: (+)-ABA 17 µM
Baseline: wild-type fitted maximum
Direction: higher = stronger binding
Starting sequence: PYL1, truncated, DHFR fusion (Arabidopsis thaliana); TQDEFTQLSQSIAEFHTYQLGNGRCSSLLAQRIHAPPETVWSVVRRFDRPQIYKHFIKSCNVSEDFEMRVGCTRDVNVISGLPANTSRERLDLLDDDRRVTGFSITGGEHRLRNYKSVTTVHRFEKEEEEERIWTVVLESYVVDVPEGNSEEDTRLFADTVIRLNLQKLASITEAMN
Substitution | relative binding score
L20M | 79.6%
K168P | 3.57%
Y18Q | 62.4%
Y141G | -3.4%
E139C | 76%
S104I | 12.8%
E64N | 86.4%
N114F | 1.45%
D159K | 12.2%
Q51V | 1.23%
E64K | 87.4%
R45L | -5.79%
V76D | -12%
S80Q | 9.48%
V161C | 44.7%
R111K | 71%
V78H | 11.7%
I52D | 83.2%
P50E | -6.89%

Set 4
Target: CCND2, cyclin fold, Cln2 fusion (human)
Method: yeast growth competition, sequencing
Medium: yeast
Setting: weak parent motif
Baseline: not given
Direction: higher = stronger binding
Starting sequence: E2F1 docking peptide (human); PPVKRRLDLETDH
Substitution | normalised enrichment score
FPVKRRLDLETDH [P1F] | 0.553
PPRKRRLDLETDH [V3R] | 0.489
PPVKRRLDLEVDH [T11V] | -0.0386
KPVKRRLDLETDH [P1K] | 0.188
PPVKRRLDLRTDH [E10R] | 0.113
PPVYRRLDLETDH [K4Y] | -0.62
PPVKRTLDLETDH [R6T] | 0.113
PPVKMRLDLETDH [R5M] | 0.117
HPVKRRLDLETDH [P1H] | 0.466
PPVKRVLDLETDH [R6V] | 0.21
PPCKRRLDLETDH [V3C] | 0.468
PPVKRGLDLETDH [R6G] | 0.188
GPVKRRLDLETDH [P1G] | 0.109
PPVKRRLFLETDH [D8F] | 0.25
PPVKRRADLETDH [L7A] | 0.113
PPVKRRLDLETDL [H13L] | 0.329
PPIKRRLDLETDH [V3I] | 0.297
PPVKRRLDLETCH [D12C] | -0.0606
PPVKRRLKLETDH [D8K] | 0.0533
PPVKRRLCLETDH [D8C] | 0.17
PPVKRRLDLETDK [H13K] | 0.446
PPVKRRLDLETDE [H13E] | 0.384
PPVKRRLDLEQDH [T11Q] | 0.061
PPVKRRLDLEADH [T11A] | 0.327
PPVKRRMDLETDH [L7M] | 0.348

Set 5
Target: Histone acetyltransferase KAT6A, winged helix 2, GST fusion (KAT6A, Homo sapiens, UniProt Q92794, residues 85-181)
Method: protein binding microarray
Form: double-stranded DNA, one strand shown
Medium: in vitro
Tested at: not given
Setting: 8-mer, flanks averaged, mean of 2 arrays, mostly near background
Baseline: not given
Direction: higher = stronger binding
Construct (chain): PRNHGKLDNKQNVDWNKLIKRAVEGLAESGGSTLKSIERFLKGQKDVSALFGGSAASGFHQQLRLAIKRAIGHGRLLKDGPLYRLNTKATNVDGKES
Strand | E-score
ACTATTTA | -0.021
AAACTGCG | 0.00477
AAAGTCCA | -0.14
AAATAGCG | -0.14
ACGAGCGC | -0.0429
ACTTCCAG | -0.0954
ACCCTCCT | -0.0555
AAATCTGC | 0.0686
CGGCTTTA | -0.0224
AACGCAAT | 0.0366
AAAAGAAG | 0.0949
AAAAAAGC | 0.0214
ATACGAAT | 0.0322
GGTCACAC | -0.0266
AAACAGCG | 0.0289
CTGGCGTC | 0.0658
ACTTAACG | -0.252
ATGCGATG | -0.106
CGCAAGGC | 0.0772
TAGTAGAA | -0.0866
CAGCCCCG | 0.0568

Set 6
Target: ATF1, bZIP domain (human)
Method: DHFR protein complementation
Medium: yeast
Setting: single substitutions, most at no-binding floor
Baseline: wild-type JUN-FOS pair
Direction: higher = stronger binding
Starting sequence: JUN, bZIP domain (human); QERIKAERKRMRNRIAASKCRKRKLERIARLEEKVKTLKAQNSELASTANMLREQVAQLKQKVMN; partner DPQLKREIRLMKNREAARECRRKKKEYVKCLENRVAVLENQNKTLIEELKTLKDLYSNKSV
Substitution | binding fitness [natural log]
L31A | -1.49
T37M | -1.09
L59W | -1.59
E33L | -1.41
Q55S | -1.46
A57H | -1.46
L45H | -1.49
R30T | -1.51
E44H | -1.55
L31W | -1.49
R53L | -1.53
N42T | -1.55
R30H | -1.22
L52K | -1.57
E44Q | -1.42
Q55P | -1.5
L52M | -1.62
I28K | -1.42
K36R | -1.54
T37V | -1.41
E44S | -1.52
T48S | -1.53

Set 7
Target: Interferon regulatory factor 5, full length, phosphomimetic (IRF5, Homo sapiens, UniProt Q13568-2, residues 1-514, K96S/S451D/S453D/S456D/S462D)
Method: protein-binding microarray
Form: double-stranded DNA, one strand shown
Medium: in vitro
Tested at: 250 nM
Setting: 60-bp whole probe
Together with: salmon DNA 0.4 mg/ml
Baseline: random background probes
Direction: higher = stronger binding
All sequences stand within: GCCTAGCAC … GTCTTGATTCGCTTGACGCTGCTG
Strand | log fluorescence [z-score]
TCATTGATGGCTCTCTGACTGTGCTAG | -0.273
GACGGTTTCCTACTGCTGGCGTGCTAG | 0.501
TTAGGTTTCTGGTTTCGGTTAGTGCTA | 9.29
TTAGATTTCGGGTTTCGCTTAGTGCTA | 6.61
CTAGGACTGGGTATCGGTTAGTGCTAG | 4
TCACTCCTCCAGGTTCTCACTGTGCTA | 0.491
TTAGGACTGGACACTGGATTAGTGCTA | -0.353
GACGGACTGCTTATCTTGACGTGCTAG | -0.647
TTAGGACTGGGGACTGGGTCAGTGCTA | -0.675
TTAGGTATCGGGACTGGGTCAGTGCTA | 1.69
TACAGGATGGTTTTCAGAGAGTGCTAG | -0.0337
TCAACTCTGTCCCTCTGACTGTGCTAG | -0.223
ACCCATCTCCAGTAGCCTAGCGTGCTA | -0.148
TTAGGTATCGGGTAGCGGTTAGTGCTA | 4.01
TTAGGTTTCCTTTCCCTTGAGTGCTAG | 1.9
GACGGTTTCGACTTTCGTGACGTGCTA | 6.59
GTTGGGGCGGGGCGGGGTGGGTGCTAG | 2.4
GACGGTATCGACACTGGCGACGTGCTA | 1.68
TTAGATTTCAGTCTGGATTAGTGCTAG | 2.04
TTAGTACTGCTACTGCTTTAGTGCTAG | -0.0995
TTACTTCCCAATAATCTTTTCGTGCTA | 1.28
TTAGTTATCGGTATCGGTTAGTGCTAG | 9.54
GGTCTTTCCACTTTCTTTTGGTGCTAG | 2.55
GACGAACTGAGCTTCGAGACGTGCTAG | -0.0323

Mixed results
Molecule | target | assay | test system | conditions | scale | quantity | result
PhoQ, residues 284 288 289 292 302 303 SSTMSV | PhoP, residues 12 14 15 18 19 NQCAL (Escherichia coli, UniProt P23836) | Sort-seq, item: YFP reporter | E. coli | PhoQ-PhoP variant library, together with: 10 µM Mg2+ | baseline: high Mg2+ state, higher = stronger signaling | fold induction | 18.7
